Assay results of several laboratories.
Lines come from different studies, so protocols differ. “And” joins repeats or separate records; there may be more than shown. Numbers after ± are the reported error.

Molecule | target or system | assay | test system | setting | how to read | quantity | result
SEKHFRETEV | human SCRIB PDZ3-4 tandem (MBP fusion) | automated holdup | peptide, crude extract | concentration not given, uncorrected, unit not given | reference: biotin control resin, higher = stronger binding | binding intensity | 0.984
heparin sodium | – | – | healthy Chinese adult volunteers, plasma | continuous intravenous infusion, 8 IU/kg/h, day 1 to 6 of 5-day infusion, mean | – | maximum prothrombin time (Emax) | 13.9 s
YEQDPWGVKWWY | – | – | peptide, mouse, CP model, serum | 0.154 µmol/kg, 4 weeks | – | serum TNF-alpha | decreased
semaglutide | – | H&E histology, NASH-CRN scoring | Wistar rat, male, diet-induced obese, liver | subcutaneous, dose not given, 10 weeks treatment | – | lobular inflammation score | decreased
somatropin | – | – | Turner syndrome patients | dose not given, median | – | first-year growth velocity | 7.8 cm/year
difelikefalin | – | – | Japanese haemodialysis patients with pruritus | intravenous, 0.25 µg/kg, 8 weeks | – | PGIC minimally improved | 34.4%
maraviroc | – | ELISA | HIV-infected mice, brain | i.p., 120 mg/kg twice daily, 3 weeks post infection | – | Aβ40 level | 9.33 ± 0.5 pg/µg
human serum albumin | – | co-immunoprecipitation | human RBC membrane | DSSO crosslinker, unit not given, with: Band 3 peptide 1-56 bait | reference: negative control | co-IP enrichment | 17.9
NPDALPETLV | human MAGI1-3/6 PDZ construct (MBP fusion) | automated holdup | peptide, purified PDZ protein | concentration not given, unit not given | reference: biotin control resin, higher = stronger binding | binding intensity | 0.637
human delta-aminolevulinic acid dehydratase | – | co-immunoprecipitation | human RBC cytosol | DSSO crosslinker, unit not given, with: Band 3 peptide 1-56 bait | reference: negative control | co-IP enrichment | 22600
cotadutide | – | lipidomics, refers to: hepatic total Sphingomyelins | ob/ob mice on AMLN diet, NASH model, liver | dose not given | – | metabolite level | 0.96 ± 0.04 scaled intensity
UBE2I | – | co-immunoprecipitation | human RBC cytosol | no crosslinker, unit not given, with: Band 3 peptide 1-56 bait | reference: negative control | co-IP enrichment | 0
Pam2CSK4 | – | – | APP/PS1 mouse, cortex | local injection, dose not given, unit not given | reference: injected over adjacent side | Thioflavin S plaque level | 0.817 and 0.783
calcium | – | ion current, two-electrode voltage clamp | Xenopus oocytes | 10 mM, -80 mV, with: niflumic acid present | – | desensitization time constant | 11.2 s and 7.6 s and 7.77 s and 4.53 s and 7.07 s
CCT3 | – | co-immunoprecipitation | human RBC membrane | unit not given, with: Band 3 peptide 1-56 bait | reference: negative control | co-IP enrichment | 0

Repeated from above:
Molecule | target or system | assay | test system | setting | how to read | quantity | result
Pam2CSK4 | – | – | APP/PS1 mouse, cortex | local injection, dose not given, unit not given | reference: injected over adjacent side | Thioflavin S plaque level | 0.817 and 0.783
calcium | – | ion current, two-electrode voltage clamp | Xenopus oocytes | 10 mM, -80 mV, with: niflumic acid present | – | desensitization time constant | 11.2 s and 7.6 s and 7.77 s and 4.53 s and 7.07 s
